Published values of several laboratories.
TDP1: Tyrosyl-DNA phosphodiesterase 1 (TDP1, Homo sapiens, UniProt Q9NUW8)
Sequence of UniProt Q9NUW8 (whole entry, looked up): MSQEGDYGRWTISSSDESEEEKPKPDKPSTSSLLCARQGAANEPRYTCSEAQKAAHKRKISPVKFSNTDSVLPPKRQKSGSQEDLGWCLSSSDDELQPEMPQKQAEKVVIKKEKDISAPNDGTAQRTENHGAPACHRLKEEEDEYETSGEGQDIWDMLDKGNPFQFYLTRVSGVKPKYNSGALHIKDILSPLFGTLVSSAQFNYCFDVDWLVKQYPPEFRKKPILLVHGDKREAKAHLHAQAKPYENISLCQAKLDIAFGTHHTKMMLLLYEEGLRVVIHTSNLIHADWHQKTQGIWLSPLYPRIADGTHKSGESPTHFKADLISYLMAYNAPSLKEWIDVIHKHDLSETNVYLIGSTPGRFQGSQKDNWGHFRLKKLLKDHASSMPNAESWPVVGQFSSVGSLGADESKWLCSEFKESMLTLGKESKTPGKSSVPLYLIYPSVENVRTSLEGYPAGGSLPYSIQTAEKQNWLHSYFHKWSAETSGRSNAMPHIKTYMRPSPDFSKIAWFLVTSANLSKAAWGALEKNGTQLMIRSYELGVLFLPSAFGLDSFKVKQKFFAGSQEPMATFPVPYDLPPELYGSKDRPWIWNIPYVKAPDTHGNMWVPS

| SMILES | target or system | test | conditions | scale | measurement | value |
| --- | --- | --- | --- | --- | --- | --- |
| CCOc1cncc(-c2ccc(NC(=O)C3(c4ccnc(NS(=O)(=O)C5CC5)n4)CCOCC3)nc2)n1 | HT-1080 | cell proliferation, CellTiter-Glo | 72 h, Sarcoma cancer |  | IC50 | 61 nM |
| O=C(Nc1cc(OCCN2CCCC2)c2ccccc2n1)c1cccc(C(=O)Nc2cc(OCCN3CCCC3)c3ccccc3n2)n1 | HT-1080 | cell viability, CellTiter-Glo | 72 h | reference: IC50 HT-1080 over WI-38 | selectivity ratio | 5.5 |
| Cc1cc(C)nc(NC(=S)N2CCN(c3ccncc3)CC2)c1 | HT-1080 | cell viability, CellTiter-Glo | 4 days |  | EC50 | > 100000 nM |
| O=C(NCc1cc(F)cc(F)c1)[C@@]1(O)CCN(c2ccc3[nH]ccc3c2)C1=O | HT-1080 | colony formation |  |  | IC50 | 71 nM |
| CC(C)c1ccc(N(C)c2ccc3c(c2)OCC[C@H]3CNc2cnccc2C(=O)O)cc1 | HT-1080 | cell growth or viability, ATP luminescence | 7 days |  | IC50 | 14.1 nM |
| O=C(O)c1ccc(Nc2c(-c3ccccc3)nc3ccc(CON=Cc4ccc5c(c4)Cc4ccccc4-5)cn23)cc1 | TDP1 | enzyme activity, inhibitor | 100 µM, unpurified compound |  | inhibition | 82.5% |
| CNS(=O)(=O)Nc1nccc(Cc2c(C)c3ccc(Oc4ncccc4F)cc3oc2=O)c1F | HT-1080 | cell viability | 7 days |  | IC50 | 2.16 nM |
| O=C(O)c1ccc(Nc2c(-c3ccc(CON=Cc4cccn4-c4sc5c(c4C(=O)O)CCCC5)cc3)nc3cc(-c4ccccc4)ccn23)cc1 (mixture of isomers) | TDP1 | enzyme activity, inhibitor | 100 µM, unpurified compound |  | inhibition | 102% |
| Cn1ncc(-c2ccc3c(=O)[nH]nc(CN)c3c2)c1-c1c(F)c(Cl)cc(OC2CC2)c1C#N | HT-1080 | cell viability, inhibitor, CellTiter-Glo | 120 h, baseline-subtracted |  | IC50 | 80 nM |
| NCCOc1cc(NC(=O)c2cc(Cl)cc(C(=O)Nc3cc(OCCN)c4ccccc4n3)n2)nc2ccccc12 | HT-1080 | cell viability, CellTiter-Glo | 72 h | reference: IC50 HT-1080 over WI-38 | selectivity ratio | 0.9 |

Excerpt of the above:
| SMILES | target or system | test | conditions | scale | measurement | value |
| --- | --- | --- | --- | --- | --- | --- |
| Cc1cc(C)nc(NC(=S)N2CCN(c3ccncc3)CC2)c1 | HT-1080 | cell viability, CellTiter-Glo | 4 days |  | EC50 | > 100000 nM |
| O=C(NCc1cc(F)cc(F)c1)[C@@]1(O)CCN(c2ccc3[nH]ccc3c2)C1=O | HT-1080 | colony formation |  |  | IC50 | 71 nM |
